# Published values from different studies.
# Every numbered part comes from another study and shows a few of its results, in no order. Substitutions count along the parent as printed.

# Series 1
# Target: RNA binding protein fox-1 homolog 2, RRM domain, GST-SBP tag (RBFOX2, Homo sapiens, UniProt O43251-10, residues 100-194)
# Method: RNA Bind-n-Seq
# Molecule type: RNA
# Medium: in vitro
# Concentration: 365 nM
# Setting: natural RNA segment, single round, ends assumed
# Reference: no-protein control
# Reading: higher = stronger binding
# Shared flanks, not repeated: GGGAGUUCUACAGUCCGACGAUC … UGGAAUUCUCGGGUGCCAA
# Construct (chain): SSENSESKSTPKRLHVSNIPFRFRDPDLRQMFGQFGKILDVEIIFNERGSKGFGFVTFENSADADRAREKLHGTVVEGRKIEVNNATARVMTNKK
Oligonucleotide,RBNS enrichment (R)
GCCCUGCCUGAGUUGUGUGCAUCCAGGGGCCUGGUGAGCCCCCAGGCUGGUGGCAUGGCCCCCCUGCCCCGUGCUGAAUGAAUGUACAGAGCCAGACAAAGCUGUGAAUG,0.392
GUCCUGCCAUUCGUGUGCUUCCAUGGACAAACCUGAUUUUUUUCUCUUAGUUCUAAAGAAUCUUGGGUUAUUUUGUAGCGGUGCCAGUAUUUCAGUAGAUGGGAUUUCAG,0.435
UCCAUACAUCUUCUGAAAACUAGGCGGAGGUUUCCAAAUCUCAAUUCUUGACUUCUGUGCACCUGCAGGCUUAACAGCACAUAGAAGCUGCCAAGGCUUGGGGCUUCCAC,0.599
AUGGCUUCCUAAGGAAUCUCUGCUUGCUCUGUAUUCUUUAUGUGGAAUAAUAUCAAGAAAUUUUUCUUGUGAGGAAAUUCAUUUGGGGUGUGUACACUAAUGCUGUACUA,0.559
UCAUUUCUGAUCAAGUAAAUACACCAGCAGUUGUCAUUCAAUGCAGGUUUUUGUACUUAAUUAUAUGGUGAUUUUUUUACUUUUUAAGAGCAGAAACGGAAAUUGACCUC,0.411
CUUCCUCUGAGAGGGCCAAAUGCUGUGAGUCUGAAGUAUGUGCCUGGUGUGAAAUGAUCUAUGGCCUGUUUCUUACACAGGAAGCCCCCUGAACCUCCUGUACAUGUGUU,0.725
UAUUGGAUGUGAUGUUUCUUGCAUUCAUGUAAAUUGGAUGCAAUGUUUUCAAAUAAAUGUAGAUCUUGAGCAUGAUGUGUUCUGUAUAAUUUUAAUAGAUAAUAAUCAUA,2.22
ACCUGUCUACCUGAGGAGCUCCAGAGCUUCCCCAGAUGCUGGCUAUGCCUUGGCACUGACACCGUCCUGGCGCUGCCCAAGGCUAUACCUGUGUAGCCCUUUGGAUUCAG,0.218

# Series 2
# Target: MAFF, bZIP domain (human)
# Method: DHFR protein complementation
# Medium: yeast
# Setting: single substitutions, most at no-binding floor
# Reference: wild-type JUN-FOS pair
# Reading: higher = stronger binding
# Parent: JUN, bZIP domain (human); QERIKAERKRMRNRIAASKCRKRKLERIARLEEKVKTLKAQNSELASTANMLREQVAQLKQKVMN; partner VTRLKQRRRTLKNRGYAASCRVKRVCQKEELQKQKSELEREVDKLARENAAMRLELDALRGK
Change,binding fitness [natural log]
Q41S,-1.52
A46S,-1.55
R30Q,-1.28
S47N,-1.45
T37D,-1.32
R30P,-1.44
E33M,-1.56
L45M,-1.5
E33L,-1.34
I28S,-1.54
A46F,-1.48
S43D,-1.51
M51N,-1.51
L38W,-1.48
V56N,-1.5
Q55R,-1.26

# Series 3
# Target: RING finger protein unkempt homolog, zinc fingers 1-6, SBP tag (UNK, Homo sapiens, UniProt Q9C0B0, residues 30-357)
# UniProt Q9C0B0, sequence (30-357, looked up): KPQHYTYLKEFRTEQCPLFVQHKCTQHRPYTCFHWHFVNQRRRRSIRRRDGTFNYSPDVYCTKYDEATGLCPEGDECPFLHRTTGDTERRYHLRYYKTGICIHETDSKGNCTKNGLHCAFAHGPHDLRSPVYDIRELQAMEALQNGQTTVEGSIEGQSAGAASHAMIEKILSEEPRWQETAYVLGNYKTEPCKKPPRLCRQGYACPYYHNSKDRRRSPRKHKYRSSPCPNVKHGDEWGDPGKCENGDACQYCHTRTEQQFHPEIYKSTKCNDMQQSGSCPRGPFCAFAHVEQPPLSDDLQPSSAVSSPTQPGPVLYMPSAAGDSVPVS
# Method: RNA Bind-n-Seq
# Molecule type: RNA
# Medium: in vitro
# Concentration: 100 nM
# Setting: RNA with constant flanks, vertebrate orthologous sites, ends assumed
# Reference: input RNA pool
# Reading: higher = stronger binding
# Shared flanks, not repeated: GGGAGUUCUACAGUCCGACGAUC … CAACAGAGGAUUGAGCAUCA
Oligonucleotide,bound/input enrichment [ratio]
GAAACUUAGUUAGUUACUUACACUUAAUGACCUCAUGCCUGAGUUCCUUUUUUCACUGAAUUACCUUUCUUUUUUAUUGUUGCAGUUUUAAUAAUAGGAAUAAAUAGAAGGCUGUGCUGG,2.21
ACACGUAUAUUGUGGCAUAUAGUCAACAUGGAAGUAGACCAGCUCUGCUGAUUUGAAAUUUAGAUUUUUUAAUUAUGUACUGGGGACAGGUUUUUGUCGCUUUACAUUGCUUCCUAGUUU,3.18
UUGGAAAUUCCCCAUUGUCACUGAGAACCACCAAAUCUGACUUUUACAUUUGGUGGAAUUUAGGUUCCUGCCCUGUUGGUUUUUUUUUUUUUUUUAAACAGUUUUCACAAGUUCUUAAAG,0.96
UGGGUUACUCCUAUUAUUAUCAAGUAGCUGGAAUUGUGAAGGUCGGAGUAGUUAGAUCUUUAGCUUUUACUCCUUAUUUUUUUUUUGUAUUACUAUCCAUGUGUAUAAAUUAUUGAUCAU,2.63
UUCAGGCACAACUGACUGGUUCACAGCAUUCCUUACAUAGCUAUCUAUCAAAUGCAAGUGUAGUUAAUUUUCAGGAAACAAGCAGGCAGUCAUCUUUAUCCUGUAGCCCAAUUGGAGAUU,1.58
AAGCCAUCUUUUCCACAUUUUCUGUAAAUAAUGGAUAAUCAUUUUAAAAAAAUUUAUUUUUAGUGCUGUUUUAACAAUGUAGAUAGAUCAUAAAUGUACUUGCUGAAUUCAAUCAUUUUU,0.688
UUGGGACCAGCUCUCCAAAUAAGAAUAGUAGUAAAAAAAAUAAGCAAAAUGAUAUUUGUAUAGAAAAAACAGAAGUUAAAUCAUGUAGAAUCAAUGCUGCCAACAUAGCAAGCCCUAGAG,2.36
GUUGGUGCAGAGGGCUCUCUGUAUCAGUGCCCAUCACCCCUUCUUCAUACCAACUGUCCCUAGUUAUAGGAAUUUAAUAUUUUUAAAAGUUUUACAUUGCUGUAUAUUCAAAGAUUUGUU,0.736

# Series 4
# Target: CCNB2, cyclin fold, Cln2 fusion (human)
# Method: yeast growth competition, sequencing
# Medium: yeast
# Setting: weak parent motif
# Reference: not given
# Reading: higher = stronger binding
# Parent: CDKN1A docking peptide (human); SKACRRLFGPVDS
Change,normalised enrichment score
SKACRRLFGPNDS [V11N],0.0359
SGACRRLFGPVDS [K2G],0.051
SKACRALFGPVDS [R6A],-0.0788
SKACRRLFGPTDS [V11T],0.494
SKAFRRLFGPVDS [C4F],0.0712
SKACRRLFGPVAS [D12A],0.236
SAACRRLFGPVDS [K2A],0.0932
SKACRRLFWPVDS [G9W],0.585
SKACRRCFGPVDS [L7C],0.263
SKACRRLFGAVDS [P10A],0.369
SKACRRLFYPVDS [G9Y],0.282
SKFCRRLFGPVDS [A3F],0.0887
SKACRDLFGPVDS [R6D],-0.0745
SKACRKLFGPVDS [R6K],0.474
SKNCRRLFGPVDS [A3N],-0.293
SKACRRLFGIVDS [P10I],0.415
SKACRRLLGPVDS [F8L],-0.265

# A few entries again (series 2):
Change,binding fitness [natural log]
R30Q,-1.28
S47N,-1.45
T37D,-1.32
R30P,-1.44
E33M,-1.56
